# Experimental data from different studies.
# Parts stem from different laboratories: compare values within a part only. Changes are numbered by the printed parent chain.

# Study 1 — method: RNA Bind-n-Seq; molecule type: RNA; sample: in vitro; tested at: 365 nM; reference: no-protein control; direction: higher = stronger binding
# Target: RNA binding protein fox-1 homolog 2, RRM domain, GST-SBP tag (RBFOX2, Homo sapiens, UniProt O43251-10, residues 100-194)
# Setting: natural RNA segment, single round, ends assumed
# Shared flanks, not repeated: GGGAGUUCUACAGUCCGACGAUC … UGGAAUUCUCGGGUGCCAA
# Residues (chain): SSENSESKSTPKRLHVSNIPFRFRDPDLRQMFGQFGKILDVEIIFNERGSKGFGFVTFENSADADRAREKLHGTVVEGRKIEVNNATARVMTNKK
Strand,RBNS enrichment (R)
AGGAGGAGGACUGGCUGCCUCCAUUUUGCCUUGUUUGUUAGUUUGCCUGGGUCUGUCUGAGGAAGGAGGGGGUCCCGCCUUCCACCUCAACACAUCCCUUCAGUGACUCA,1.53
AACAUGCAGUCCUCUAGUGUUUCAUGUACAUUCUGUGGGGGGUGAACACCUUGGUUCUGGUUAAACAGCUGUACUUUUGAUAGCUGUGCCAGGAAGGGUUAGGACCAACU,0.254
UUGGGAAUCCUAUGUGUAUUUAGUUCUGACUAGUCGUUUGAGGUCUCGGUGGCAGAGCCUGGCUAGUGACUACCAUGUUGGUCAGUGCAGCCUGCUAUCACUCCUUCAAG,0.241
AACAAAAGGCUUUUGUUCAUACCAAAGGCUUUUGUGUGUGGAUGGGGGAGAGCCCCCCAGCUUCCUGCCACAGAGCACAGGCCUGUAUGUAGCUCAUAGUCCCCACAAUG,0.365
GCUGCUUCCACCAUCACACUGGGGUUUCUGGAUGGGAAAUAAAAAAAUAAAGGCAGUUCAUUUCCCCCUGUGGCUCUCUCUUCCGUUGGUGGUGGGGGUGGGGCCGGUGU,0.497
AUUAUACACACACAGAGGCACUCACCGCUGGCUCUCCUUUCCUUGGGGAUUGGGGUGGGGGUGAUAACGUUUUCUCCAGUUCAACAGGAGUGCUUGACCCAAGUCAGUCA,0.591

# Study 2 — method: protein binding microarray; molecule type: double-stranded DNA, one strand shown; sample: in vitro; tested at: not given; reference: not given; direction: higher = stronger binding
# Target: Histone acetyltransferase KAT6A, both winged helices, GST fusion (KAT6A, Homo sapiens, UniProt Q92794, residues 1-181)
# Setting: 8-mer, flanks averaged, mean of 2 arrays, mostly near background
# Construct (chain): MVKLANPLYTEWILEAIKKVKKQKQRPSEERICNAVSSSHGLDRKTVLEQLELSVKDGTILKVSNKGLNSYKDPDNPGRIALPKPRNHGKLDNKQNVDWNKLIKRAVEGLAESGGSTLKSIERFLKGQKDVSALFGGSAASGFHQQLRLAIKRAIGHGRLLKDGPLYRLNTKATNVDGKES
Strand,E-score
AGGATCAG,-0.181
CACAATAG,-0.0477
CCACGGTC,0.0461
AAGTGGGT,-0.162
ACTTTTCC,-0.0534
GCCAAACA,-0.0249

# Study 3 — target: CCNB3, cyclin fold, Cln2 fusion (human); method: yeast growth competition, sequencing; sample: yeast; setting: weak parent motif; reference: not given; direction: higher = stronger binding
# Starting sequence: WEE1 docking peptide (human); HKTFRKLRLFDTP
Change,normalised enrichment score
HKTFRPLRLFDTP [K6P],0.635
HKTARKLRLFDTP [F4A],0.325
HKTLRKLRLFDTP [F4L],-0.127
HKTFRKLVLFDTP [R8V],0.444

# Other studies, line by line
Molecule,target,test,test system,conditions,how to read,measurement,result
"PhoQ, residues 284 288 289 292 302 303 TNSAEL","PhoP, residues 12 14 15 18 19 LWHVM (Escherichia coli, UniProt P23836)","Sort-seq, measured: YFP reporter",E. coli,"PhoQ-PhoP variant library, with: 10 µM Mg2+","reference: high Mg2+ state, higher = stronger signaling",fold induction,21.7

# Excerpt of the above (study 2):
Strand,E-score
AGGATCAG,-0.181
ACTTTTCC,-0.0534
